# Published values collected from several papers.
# Parts stem from different laboratories: compare values within a part only. Several values in a cell are separate wells, animals, samples, runs or records. pEC50: −log10 of the molar value.
# Chain of UniProt P60842 (whole entry, looked up): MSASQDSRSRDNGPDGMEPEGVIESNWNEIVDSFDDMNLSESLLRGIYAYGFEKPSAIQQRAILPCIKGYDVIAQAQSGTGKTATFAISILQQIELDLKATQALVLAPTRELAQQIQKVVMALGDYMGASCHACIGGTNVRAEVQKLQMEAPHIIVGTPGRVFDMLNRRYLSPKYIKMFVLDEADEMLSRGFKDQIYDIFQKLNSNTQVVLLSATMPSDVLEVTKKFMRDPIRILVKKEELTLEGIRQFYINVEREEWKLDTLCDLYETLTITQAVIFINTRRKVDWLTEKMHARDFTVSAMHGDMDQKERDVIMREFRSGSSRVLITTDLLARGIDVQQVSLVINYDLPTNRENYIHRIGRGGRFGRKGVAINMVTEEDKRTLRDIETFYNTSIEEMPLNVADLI

# Set 1
# Organism: Plasmodium berghei
# Mode: inhibitor
# Cell line: Huh-7
# Strain: GFP-expressing, liver stage
# Tested at: 10 µM
# Time: 24 h
# Baseline: untreated control
Compound,infection rate
C[C@]12CC[C@H]3[C@@H](CCC4=CC(=O)CC[C@@]43C)[C@@H]1CC[C@@H]2O,90.3%
C=CCC1(C(C)CCC)C(=O)NC(=S)NC1=O (centres unmarked),110%
O=C(CCCN1CCC2(CC1)C(=O)NCN2c1ccccc1)c1ccc(F)cc1,78.5%

# Set 2
# Target: Beta-1 adrenergic receptor (ADRB1, Homo sapiens, UniProt P08588)
# Chain of UniProt P08588 (whole entry, looked up): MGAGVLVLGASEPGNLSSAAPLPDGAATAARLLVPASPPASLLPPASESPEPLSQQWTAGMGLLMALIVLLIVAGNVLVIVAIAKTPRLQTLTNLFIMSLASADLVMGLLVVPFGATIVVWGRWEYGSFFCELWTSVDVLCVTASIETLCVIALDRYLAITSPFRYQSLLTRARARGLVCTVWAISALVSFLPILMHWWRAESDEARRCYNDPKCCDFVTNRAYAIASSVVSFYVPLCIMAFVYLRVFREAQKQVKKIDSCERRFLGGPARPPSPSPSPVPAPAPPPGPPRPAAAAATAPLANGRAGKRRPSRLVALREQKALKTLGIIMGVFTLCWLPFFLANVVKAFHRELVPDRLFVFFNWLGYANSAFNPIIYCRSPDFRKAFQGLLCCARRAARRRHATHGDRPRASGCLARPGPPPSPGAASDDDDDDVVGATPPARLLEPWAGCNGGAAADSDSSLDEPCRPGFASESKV
# Mode: agonist
SMILES,pEC50
COc1cc(CCN)ccc1O,≤ 4.00
O=C1NCC2(CCCN(Cc3cc(O)c4cccc(F)c4n3)C2)O1 (centres unmarked),≤ 4.00
CC(C)(C)NCC(O)c1ccc(O)c(O)c1 (centres unmarked),≤ 4.00

# Single results of other studies
SMILES,tested on,assay,test system,setting,scale,measurement,value
CNC(=O)c1ccc(-c2cnn3ccc(C(=O)N(C)c4ccc(Cl)c(C(=O)OC)c4)cc23)cc1,Cryptosporidium parvum,,neonatal calves,"dose not given, day 5 post-treatment",direction not given,fecal consistency score,2 and 1 and 3
COc1ccc([C@@]23Oc4cc(OC)cc(OC)c4[C@]2(O)[C@H](O)C[C@H]3c2ccccc2)cc1,"EIF4A1 (Homo sapiens, UniProt P60842)","RNA clamping, fluorescence polarization",,"concentration not given, mean of two replicates, added: FAM-labelled poly r(AG)8 RNA",,fluorescence polarization change,71.3 mP

# Repeated from above (set 1):
Compound,infection rate
C=CCC1(C(C)CCC)C(=O)NC(=S)NC1=O (centres unmarked),110%
